Assay results collected from several papers.
Each numbered part is a random draw from the data of one study; scales do not carry over between parts.
Sequence of UniProt P25105 (whole entry, looked up): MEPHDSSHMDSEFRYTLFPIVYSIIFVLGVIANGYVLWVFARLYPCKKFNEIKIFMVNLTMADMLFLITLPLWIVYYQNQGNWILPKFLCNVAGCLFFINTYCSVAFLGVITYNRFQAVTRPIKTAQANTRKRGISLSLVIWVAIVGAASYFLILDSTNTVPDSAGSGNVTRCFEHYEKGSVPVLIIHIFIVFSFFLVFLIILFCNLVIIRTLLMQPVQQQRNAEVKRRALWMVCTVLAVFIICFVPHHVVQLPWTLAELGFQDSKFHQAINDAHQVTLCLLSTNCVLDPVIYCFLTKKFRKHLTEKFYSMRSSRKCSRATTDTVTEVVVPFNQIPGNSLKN
Sequence of UniProt Q9NS66 (whole entry, looked up): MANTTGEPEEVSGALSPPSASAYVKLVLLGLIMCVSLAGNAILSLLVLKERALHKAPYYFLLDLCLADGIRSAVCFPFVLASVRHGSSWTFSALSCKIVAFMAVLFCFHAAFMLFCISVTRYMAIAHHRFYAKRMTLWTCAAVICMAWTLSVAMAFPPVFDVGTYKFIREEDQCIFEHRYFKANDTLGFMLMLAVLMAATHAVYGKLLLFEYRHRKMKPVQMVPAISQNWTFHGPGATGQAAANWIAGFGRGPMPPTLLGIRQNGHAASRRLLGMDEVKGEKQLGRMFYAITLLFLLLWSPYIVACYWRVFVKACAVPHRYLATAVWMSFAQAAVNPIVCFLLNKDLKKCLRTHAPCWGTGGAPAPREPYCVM
Sequence of UniProt P51677 (whole entry, looked up): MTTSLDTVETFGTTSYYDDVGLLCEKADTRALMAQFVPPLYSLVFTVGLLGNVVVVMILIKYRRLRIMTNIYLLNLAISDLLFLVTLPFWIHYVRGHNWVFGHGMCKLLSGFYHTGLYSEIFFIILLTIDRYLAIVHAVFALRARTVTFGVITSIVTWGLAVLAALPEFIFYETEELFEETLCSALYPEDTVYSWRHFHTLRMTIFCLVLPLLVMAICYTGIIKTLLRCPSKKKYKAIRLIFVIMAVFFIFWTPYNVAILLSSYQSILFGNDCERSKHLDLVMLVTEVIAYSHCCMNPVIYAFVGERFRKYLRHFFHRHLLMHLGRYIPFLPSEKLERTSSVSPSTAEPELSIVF
Sequence of UniProt P35414 (whole entry, looked up): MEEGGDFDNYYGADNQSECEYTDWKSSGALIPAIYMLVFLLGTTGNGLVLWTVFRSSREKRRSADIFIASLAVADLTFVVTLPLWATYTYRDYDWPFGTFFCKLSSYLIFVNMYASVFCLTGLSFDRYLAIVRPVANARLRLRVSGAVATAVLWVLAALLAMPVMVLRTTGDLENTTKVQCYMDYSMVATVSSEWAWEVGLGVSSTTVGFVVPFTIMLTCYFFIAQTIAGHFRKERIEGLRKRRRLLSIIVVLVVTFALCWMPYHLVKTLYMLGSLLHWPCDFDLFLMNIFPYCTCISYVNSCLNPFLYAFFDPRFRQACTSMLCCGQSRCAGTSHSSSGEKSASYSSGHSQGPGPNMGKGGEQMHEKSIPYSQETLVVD
Sequence of UniProt Q96RI9 (whole entry, looked up): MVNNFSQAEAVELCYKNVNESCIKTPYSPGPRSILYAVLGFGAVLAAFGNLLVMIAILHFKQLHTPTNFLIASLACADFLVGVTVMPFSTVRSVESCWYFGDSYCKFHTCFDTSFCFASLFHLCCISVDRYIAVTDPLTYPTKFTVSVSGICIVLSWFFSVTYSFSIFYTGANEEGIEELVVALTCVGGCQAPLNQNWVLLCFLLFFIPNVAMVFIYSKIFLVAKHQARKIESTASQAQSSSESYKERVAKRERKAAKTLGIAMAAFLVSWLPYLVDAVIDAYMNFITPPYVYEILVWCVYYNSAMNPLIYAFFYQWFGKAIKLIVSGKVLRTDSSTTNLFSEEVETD
Sequence of UniProt P47871 (whole entry, looked up): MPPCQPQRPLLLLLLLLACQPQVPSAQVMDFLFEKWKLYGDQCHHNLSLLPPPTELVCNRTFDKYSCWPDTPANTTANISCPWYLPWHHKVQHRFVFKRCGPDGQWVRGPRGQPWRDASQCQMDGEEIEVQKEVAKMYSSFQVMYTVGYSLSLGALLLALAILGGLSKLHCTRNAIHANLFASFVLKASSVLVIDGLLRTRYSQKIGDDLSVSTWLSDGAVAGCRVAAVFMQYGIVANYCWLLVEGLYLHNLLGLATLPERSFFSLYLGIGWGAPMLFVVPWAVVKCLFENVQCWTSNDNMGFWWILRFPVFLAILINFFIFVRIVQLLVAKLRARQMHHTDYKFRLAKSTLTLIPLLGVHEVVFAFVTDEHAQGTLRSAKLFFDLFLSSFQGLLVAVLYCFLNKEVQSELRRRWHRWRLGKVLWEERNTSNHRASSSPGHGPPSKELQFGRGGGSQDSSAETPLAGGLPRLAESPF
Sequence of UniProt P48145 (whole entry, looked up): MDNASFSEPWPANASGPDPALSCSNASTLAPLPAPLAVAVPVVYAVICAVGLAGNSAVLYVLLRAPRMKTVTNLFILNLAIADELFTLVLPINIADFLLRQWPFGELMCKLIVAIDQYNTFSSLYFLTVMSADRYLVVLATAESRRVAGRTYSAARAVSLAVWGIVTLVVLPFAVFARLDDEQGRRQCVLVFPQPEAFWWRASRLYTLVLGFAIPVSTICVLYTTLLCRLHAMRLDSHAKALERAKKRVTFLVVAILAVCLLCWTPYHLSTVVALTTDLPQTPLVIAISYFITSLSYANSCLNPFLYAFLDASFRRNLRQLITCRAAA
Sequence of UniProt P32241 (whole entry, looked up): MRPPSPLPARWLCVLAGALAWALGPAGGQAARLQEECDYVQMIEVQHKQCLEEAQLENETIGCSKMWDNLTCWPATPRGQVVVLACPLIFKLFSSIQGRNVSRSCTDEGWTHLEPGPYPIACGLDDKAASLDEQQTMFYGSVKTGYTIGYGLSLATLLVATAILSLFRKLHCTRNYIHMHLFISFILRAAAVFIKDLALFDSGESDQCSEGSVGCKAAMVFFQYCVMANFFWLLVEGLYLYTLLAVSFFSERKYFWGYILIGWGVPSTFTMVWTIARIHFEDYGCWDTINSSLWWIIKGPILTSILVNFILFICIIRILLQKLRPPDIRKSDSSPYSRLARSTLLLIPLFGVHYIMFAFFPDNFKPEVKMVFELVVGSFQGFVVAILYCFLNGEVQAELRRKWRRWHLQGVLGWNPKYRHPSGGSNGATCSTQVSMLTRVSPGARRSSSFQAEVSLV

Study 1
Compound: CCN(c1nc(N)c(C(=O)N=C(N)N)nc1Cl)C(C)C
Effect on: β-arrestin recruitment
Mode: agonist
Method: PRESTO-Tango
Concentration: 10 µM
Reference: untreated
Measurement: fold over basal
target = Platelet-activating factor receptor (PTAFR, Homo sapiens, UniProt P25105); value = 1.19
target = Adhesion G-protein coupled receptor F3 (ADGRF3, Homo sapiens, UniProt Q8IZF5); value = 1.46
target = Apelin receptor (APLNR, Homo sapiens, UniProt P35414); value = 1.2
target = Vasoactive intestinal polypeptide receptor 1 (VIPR1, Homo sapiens, UniProt P32241); value = 4.45 fold
target = GPR101 (Homo sapiens, UniProt Q96P66); value = 1.08
target = Glucagon receptor (GCGR, Homo sapiens, UniProt P47871); value = 1.07 fold
target = Probable G-protein coupled receptor 173 (GPR173, Homo sapiens, UniProt Q9NS66); value = 1.03
target = Trace amine-associated receptor 9 (TAAR9, Homo sapiens, UniProt Q96RI9); value = 0.87 fold
target = C-C chemokine receptor type 3 (CCR3, Homo sapiens, UniProt P51677); value = 1.07
target = Neuropeptides B/W receptor type 1 (NPBWR1, Homo sapiens, UniProt P48145); value = 0.91

Study 2
Target: Diamine acetyltransferase 1 (Homo sapiens, UniProt P21673)
Mode: inhibitor
Concentration: 10 µM
Reference: control
Measurement: remaining activity
Residues (P21673 1-171): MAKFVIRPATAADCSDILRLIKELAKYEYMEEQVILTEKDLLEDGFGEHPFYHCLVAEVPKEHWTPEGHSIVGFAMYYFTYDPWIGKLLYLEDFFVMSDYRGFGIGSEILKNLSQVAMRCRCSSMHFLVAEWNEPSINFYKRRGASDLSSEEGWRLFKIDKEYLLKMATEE
SMILES = COc1cc(/C=C/C(=O)OCCc2ccc(O)cc2)ccc1O; value = 83.8%
SMILES = CC1=CC(=O)CC(C)(C)[C@@]1(O)/C=C/C(C)=C\C(=O)O; value = 103%
SMILES = O=c1c(O)c(-c2ccc(O)c(O)c2)oc2cc(O)cc(O)c12; value = 97.3%
SMILES = COc1ccccc1/C=C/C(=O)O; value = 102%
SMILES = NCCc1ccc(O)c(O)c1; value = 84.8%
SMILES = C[C@@H]1O[C@@H](O[C@H]2[C@H](OC(=O)[C@]34CCC(C)(C)C[C@H]3C3=CC[C@@H]5[C@@]6(C)C[C@H](O)[C@H](O[C@@H]7O[C@H](CO[C@@H]8O[C@H](CO[C@@H]9O[C@H](CO)[C@@H](O)[C@H](O)[C@H]9O)[C@@H](O)[C@H](O)[C@H]8O)[C@@H](O)[C@H](O)[C@H]7O)C(CO)(CO)[C@@H]6CC[C@@]5(C)[C@]3(C)C[C@H]4O)OC[C@H](O)[C@@H]2O)[C@H](O)[C@H](O)[C@H]1O[C@@H]1OC[C@@H](O)[C@H](O[C@@H]2OC[C@](O)(CO)[C@H]2O)[C@H]1O; value = 89.6%
SMILES = C=CCc1ccc(OC(C)=O)c(OC)c1; value = 87.2%

Study 3
Target: 5-hydroxytryptamine receptor 1B (HTR1B, Homo sapiens, UniProt P28222)
Sequence of UniProt P28222 (whole entry, looked up): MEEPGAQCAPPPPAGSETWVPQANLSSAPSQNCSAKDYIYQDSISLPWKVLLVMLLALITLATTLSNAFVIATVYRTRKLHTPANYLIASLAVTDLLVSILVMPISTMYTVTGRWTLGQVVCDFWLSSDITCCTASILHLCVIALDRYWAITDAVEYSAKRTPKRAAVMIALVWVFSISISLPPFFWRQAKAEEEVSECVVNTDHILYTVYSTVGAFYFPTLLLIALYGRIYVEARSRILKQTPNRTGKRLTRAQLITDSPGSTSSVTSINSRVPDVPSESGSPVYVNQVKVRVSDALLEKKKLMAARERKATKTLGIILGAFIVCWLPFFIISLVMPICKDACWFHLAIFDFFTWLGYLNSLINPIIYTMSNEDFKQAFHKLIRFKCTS
Effect on: ligand displacement
Method: radioligand
Concentration: 10 µM
Measurement: inhibition
SMILES = O=C(c1ccc(F)cc1)N1CC(COc2ccc(Br)cc2)(C(=O)O)C1; value = -16.9%
SMILES = Cc1c(C(=O)O)cc(-c2ccc(C3CCNCC3)cc2)c2ccc(-c3ccc(C(F)(F)F)cc3)cc12; value = 14.4%
SMILES = CCC(=N\O)/C(C)=C/c1ccc(F)cc1; value = 7.88%
SMILES = O=S(=O)(NC1CCC(c2cc(F)ccc2F)(S(=O)(=O)c2ccc(Cl)cc2)CC1)C(F)(F)F (centres unmarked); value = 15.4%
SMILES = CN(C)CC#Cc1ccc(OCCCc2sc(N3CCc4cccc(C(=O)Nc5nc6ccccc6s5)c4C3)nc2C(=O)O)c(F)c1; value = 20.2%
SMILES = CN(C)C(=O)Cn1cc(-c2nc(C3(c4ccc(-c5cnc(N)nc5)cc4)CC3)no2)cn1; value = -13.9%
SMILES = FC(F)(F)c1ccc2c(c1)nc(-c1cccnc1)n2C1CC1; value = 8.83%
SMILES = COc1cccc(CNC(=O)c2nc3scc(COCc4ccc(C(=O)O)cc4)c3c(=O)[nH]2)c1; value = 15.9%

Study 4
Cell line: A-375
Concentration: 100 µM
Time: 36 h
Measurement: viability
Compound = CN1C(C(=O)Nc2ccccn2)=C(O)c2ccccc2S1(=O)=O; value = 103%
Compound = OC[C@H]1O[C@H](OC[C@H]2O[C@H](OC[C@H]3O[C@H](O[C@]4(CO)O[C@H](CO)[C@@H](O)[C@@H]4O)[C@H](O)[C@@H](O)[C@@H]3O)[C@H](O)[C@@H](O)[C@H]2O)[C@H](O)[C@@H](O)[C@H]1O; value = 46.9%
Compound = CN(C)c1cc(NC(=O)CNC(C)(C)C)c(O)c2c1C[C@H]1C[C@H]3[C@H](N(C)C)C(O)=C(C(N)=O)C(=O)[C@@]3(O)C(O)=C1C2=O; value = 101%
Compound = Cc1nnc(NS(=O)(=O)c2ccc(N)cc2)s1; value = 109%
Compound = CC1(C)S[C@@H]2[C@H](NC(=O)COc3ccccc3)C(=O)N2[C@H]1C(=O)O; value = 92.1%
Compound = Cc1cn(-c2cc(NC(=O)c3ccc(C)c(Nc4nccc(-c5cnccn5)n4)c3)cc(C(F)(F)F)c2)cn1; value = 3.24%
Compound = NC(=O)CC[C@H](N)C(=O)O; value = 106%
Compound = Cc1nccn1CC1CCc2c(c3ccccc3n2C)C1=O (centres unmarked); value = 49.5%
Compound = O=S(=O)(O)CCSSCCS(=O)(=O)O; value = 109%

Study 5
Target: STE20-like serine/threonine-protein kinase (SLK, Homo sapiens, UniProt Q9H2G2)
Sequence of UniProt Q9H2G2 (whole entry, looked up): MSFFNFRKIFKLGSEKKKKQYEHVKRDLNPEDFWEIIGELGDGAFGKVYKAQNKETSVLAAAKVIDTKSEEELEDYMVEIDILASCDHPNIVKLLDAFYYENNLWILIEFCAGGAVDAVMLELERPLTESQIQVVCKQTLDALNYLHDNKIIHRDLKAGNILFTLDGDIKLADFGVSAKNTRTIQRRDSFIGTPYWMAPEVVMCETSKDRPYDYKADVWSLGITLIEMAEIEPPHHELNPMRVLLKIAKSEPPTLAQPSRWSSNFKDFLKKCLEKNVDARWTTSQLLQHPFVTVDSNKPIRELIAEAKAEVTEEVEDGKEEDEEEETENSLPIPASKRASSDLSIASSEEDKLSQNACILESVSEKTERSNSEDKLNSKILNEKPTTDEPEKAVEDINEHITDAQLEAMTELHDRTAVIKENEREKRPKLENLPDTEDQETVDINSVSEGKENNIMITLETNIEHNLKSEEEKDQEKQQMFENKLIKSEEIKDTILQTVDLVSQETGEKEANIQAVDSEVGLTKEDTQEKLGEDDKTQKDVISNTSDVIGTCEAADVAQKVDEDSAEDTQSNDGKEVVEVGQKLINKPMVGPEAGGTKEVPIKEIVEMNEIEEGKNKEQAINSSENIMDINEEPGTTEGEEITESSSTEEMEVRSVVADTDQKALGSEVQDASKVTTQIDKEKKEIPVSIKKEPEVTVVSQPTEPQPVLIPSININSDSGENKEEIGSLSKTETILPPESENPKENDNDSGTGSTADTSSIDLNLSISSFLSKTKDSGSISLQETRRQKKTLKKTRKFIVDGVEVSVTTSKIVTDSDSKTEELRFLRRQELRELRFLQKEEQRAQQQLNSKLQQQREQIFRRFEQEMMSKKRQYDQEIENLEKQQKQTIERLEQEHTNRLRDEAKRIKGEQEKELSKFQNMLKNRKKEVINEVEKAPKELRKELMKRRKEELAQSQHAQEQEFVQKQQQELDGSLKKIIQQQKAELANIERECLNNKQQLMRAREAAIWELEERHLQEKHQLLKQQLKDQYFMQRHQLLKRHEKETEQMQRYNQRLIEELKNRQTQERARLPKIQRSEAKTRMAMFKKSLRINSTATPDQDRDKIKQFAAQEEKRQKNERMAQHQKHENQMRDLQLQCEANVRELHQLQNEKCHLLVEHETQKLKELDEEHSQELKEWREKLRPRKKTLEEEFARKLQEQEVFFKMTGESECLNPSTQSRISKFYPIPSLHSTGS
Effect on: enzyme activity
Mode: inhibitor
Concentration: 0.5 µM
Reference: control
Measurement: remaining activity
SMILES = CCCNC(=O)Nc1ccc(Oc2ncnc3cc(OC)c(OC)cc23)cc1Cl; value = 80%
SMILES = N#CC(c1ccnc(NCCc2cccnc2)n1)c1nc2ccccc2s1 (centres unmarked); value = 87.7%
SMILES = O=Nc1c(-c2c(O)[nH]c3ccccc23)[nH]c2ccccc12; value = 78.7%
SMILES = CCCCc1c(-c2ccc(OC)cc2)[nH]c2nccnc12; value = 76.2%
SMILES = CNc1cc2c(Nc3cccc(Br)c3)ncnc2cn1; value = 63%
SMILES = c1ccc(-c2n[nH]c3c2oc2ccccc23)cc1; value = 107%
SMILES = COc1cc2c(Nc3ccc(Br)cc3F)ncnc2cc1OCC1CCN(C)CC1; value = 73.9%
SMILES = O=C1Cc2c([nH]c3ccc(Br)cc23)-c2ccccc2N1; value = 95.7%
SMILES = CC(C)(C)c1nc2c3cc[nH]c(=O)c3c3cc(F)ccc3c2[nH]1; value = 91.4%
SMILES = O=c1cc(N2CCOCC2)oc2c(-c3ccccc3)cccc12; value = 102%
SMILES = CCCCc1c(-c2ccc(O)cc2)[nH]c2nccnc12; value = 77.3%
SMILES = COc1cc2c(N3CCN(C(=O)Nc4ccc(OC(C)C)cc4)CC3)ncnc2cc1OCCCN1CCCCC1; value = 94.6%
SMILES = c1cc(-c2cnn3cc(-c4ccc(OCCN5CCCCC5)cc4)cnc23)ccn1; value = 74.9%
SMILES = CC(C)n1cnc2c(Nc3cccc(Cl)c3)nc(NCCO)nc21; value = 84.8%
SMILES = N#C/C(=C(/N)SC1C=CC=CC1)c1cccc(C(O)c2ccncc2)c1 (centres unmarked); value = 105%
SMILES = Clc1ccc(Nc2nnc(Cc3ccncc3)c3ccccc23)cc1; value = 94.2%
SMILES = Cc1ccc(S(=O)(=O)/C=C/C#N)cc1; value = 101%
SMILES = Nc1nc(Nc2ccc(S(N)(=O)=O)cc2)nn1C(=S)Nc1c(F)cccc1F; value = 4.58%
SMILES = NC(=O)c1ccc(-c2nc(-c3ccc4c(c3)OCCO4)c(-c3ccccn3)[nH]2)cc1; value = 96.2%
SMILES = C[C@@H](N)[C@H]1CC[C@H](C(=O)Nc2ccncc2)CC1; value = 94.7%
SMILES = NC(=O)c1cccc(-c2cc(Nc3ccc(OC(F)(F)F)cc3)ncn2)c1; value = 98.2%
SMILES = O=C1c2ccccc2-c2nc3nnnn3nc21; value = 92.4%
SMILES = COc1ccc2c(c1)c(C1=C(c3c[nH]c4ccccc34)C(=O)NC1=O)cn2CCCN(C)C; value = 69.4%
SMILES = O=C1NC(=O)c2c1c1c3ccccc3[nH]c1c1[nH]c3cc(Br)ccc3c21; value = 90.9%
SMILES = COc1cccc(-c2cc(=O)c3ccccc3o2)c1N; value = 102%

Some of these lines once more (study 3):
SMILES = Cc1c(C(=O)O)cc(-c2ccc(C3CCNCC3)cc2)c2ccc(-c3ccc(C(F)(F)F)cc3)cc12; value = 14.4%
SMILES = CCC(=N\O)/C(C)=C/c1ccc(F)cc1; value = 7.88%
SMILES = O=S(=O)(NC1CCC(c2cc(F)ccc2F)(S(=O)(=O)c2ccc(Cl)cc2)CC1)C(F)(F)F (centres unmarked); value = 15.4%
SMILES = CN(C)CC#Cc1ccc(OCCCc2sc(N3CCc4cccc(C(=O)Nc5nc6ccccc6s5)c4C3)nc2C(=O)O)c(F)c1; value = 20.2%
SMILES = CN(C)C(=O)Cn1cc(-c2nc(C3(c4ccc(-c5cnc(N)nc5)cc4)CC3)no2)cn1; value = -13.9%
SMILES = FC(F)(F)c1ccc2c(c1)nc(-c1cccnc1)n2C1CC1; value = 8.83%
SMILES = COc1cccc(CNC(=O)c2nc3scc(COCc4ccc(C(=O)O)cc4)c3c(=O)[nH]2)c1; value = 15.9%
